Assay results collected from several papers.
Compare with care: the assays were run in different laboratories. ± gives the spread as reported.
Chrnd/Chrna1/Chrne: Chrnd/Chrna1/Chrne (Mus musculus, UniProt P02716+P04756+P20782)
Sequence of UniProt P04756 (whole entry, looked up): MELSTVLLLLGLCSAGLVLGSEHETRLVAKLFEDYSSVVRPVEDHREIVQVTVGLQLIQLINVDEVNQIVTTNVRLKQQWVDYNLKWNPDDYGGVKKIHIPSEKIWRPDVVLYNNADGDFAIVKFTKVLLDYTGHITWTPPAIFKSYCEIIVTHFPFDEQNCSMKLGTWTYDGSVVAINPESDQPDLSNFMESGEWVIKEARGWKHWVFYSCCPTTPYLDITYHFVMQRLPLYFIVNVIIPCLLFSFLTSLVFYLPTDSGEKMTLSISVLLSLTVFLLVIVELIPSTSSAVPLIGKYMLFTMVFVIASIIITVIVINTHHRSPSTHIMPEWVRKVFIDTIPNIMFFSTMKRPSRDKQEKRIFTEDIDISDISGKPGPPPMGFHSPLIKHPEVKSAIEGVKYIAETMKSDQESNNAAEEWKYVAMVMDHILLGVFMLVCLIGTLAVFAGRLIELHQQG
Sequence of UniProt P20782 (whole entry, looked up): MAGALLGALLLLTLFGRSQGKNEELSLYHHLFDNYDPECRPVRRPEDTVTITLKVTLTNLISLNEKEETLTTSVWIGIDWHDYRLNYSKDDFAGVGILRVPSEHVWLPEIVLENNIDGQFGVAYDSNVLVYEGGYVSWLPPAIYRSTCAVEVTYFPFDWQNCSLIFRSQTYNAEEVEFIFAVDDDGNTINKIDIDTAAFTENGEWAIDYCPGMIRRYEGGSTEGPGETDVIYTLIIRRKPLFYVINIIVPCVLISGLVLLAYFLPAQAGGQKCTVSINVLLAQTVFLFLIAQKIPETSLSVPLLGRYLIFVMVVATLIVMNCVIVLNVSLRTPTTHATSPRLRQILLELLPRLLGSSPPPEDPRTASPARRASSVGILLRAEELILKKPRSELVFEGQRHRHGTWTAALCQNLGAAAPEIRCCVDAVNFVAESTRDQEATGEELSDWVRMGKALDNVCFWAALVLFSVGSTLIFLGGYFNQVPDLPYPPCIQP
Sequence of UniProt P02716 (whole entry, looked up): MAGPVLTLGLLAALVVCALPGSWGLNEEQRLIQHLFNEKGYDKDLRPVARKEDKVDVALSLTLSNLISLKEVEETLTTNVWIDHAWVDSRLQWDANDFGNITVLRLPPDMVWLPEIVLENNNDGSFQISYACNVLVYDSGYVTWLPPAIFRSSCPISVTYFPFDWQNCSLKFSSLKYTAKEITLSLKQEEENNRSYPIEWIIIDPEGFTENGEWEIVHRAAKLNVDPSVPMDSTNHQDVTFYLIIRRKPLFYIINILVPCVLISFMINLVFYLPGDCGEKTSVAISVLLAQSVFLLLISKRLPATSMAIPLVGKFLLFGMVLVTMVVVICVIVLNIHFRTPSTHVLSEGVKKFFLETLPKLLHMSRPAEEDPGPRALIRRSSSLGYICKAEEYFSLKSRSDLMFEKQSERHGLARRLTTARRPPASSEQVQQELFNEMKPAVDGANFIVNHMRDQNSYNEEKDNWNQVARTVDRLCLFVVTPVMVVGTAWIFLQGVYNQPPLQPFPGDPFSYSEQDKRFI
CHRM3: Muscarinic acetylcholine receptor M3 (CHRM3, Homo sapiens, UniProt P20309)
Sequence of UniProt P20309 (whole entry, looked up): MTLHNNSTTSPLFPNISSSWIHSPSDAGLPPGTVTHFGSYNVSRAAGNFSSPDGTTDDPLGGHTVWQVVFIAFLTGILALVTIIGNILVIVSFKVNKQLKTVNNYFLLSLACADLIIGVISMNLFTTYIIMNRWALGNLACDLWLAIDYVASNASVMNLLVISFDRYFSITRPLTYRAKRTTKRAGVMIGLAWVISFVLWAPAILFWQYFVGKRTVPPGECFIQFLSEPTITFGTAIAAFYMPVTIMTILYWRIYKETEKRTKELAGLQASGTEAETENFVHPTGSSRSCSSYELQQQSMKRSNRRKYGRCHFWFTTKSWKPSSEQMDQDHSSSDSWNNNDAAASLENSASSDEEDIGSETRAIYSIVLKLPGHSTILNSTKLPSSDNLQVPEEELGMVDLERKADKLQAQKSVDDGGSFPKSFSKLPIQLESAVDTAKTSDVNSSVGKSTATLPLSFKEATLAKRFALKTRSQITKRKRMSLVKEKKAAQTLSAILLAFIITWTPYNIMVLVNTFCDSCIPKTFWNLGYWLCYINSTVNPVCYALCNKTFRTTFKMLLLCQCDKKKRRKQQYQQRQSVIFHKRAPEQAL
MRGPRX2: Mas-related G-protein coupled receptor member X2 (MRGPRX2, Homo sapiens, UniProt Q96LB1)
Sequence of UniProt Q96LB1 (whole entry, looked up): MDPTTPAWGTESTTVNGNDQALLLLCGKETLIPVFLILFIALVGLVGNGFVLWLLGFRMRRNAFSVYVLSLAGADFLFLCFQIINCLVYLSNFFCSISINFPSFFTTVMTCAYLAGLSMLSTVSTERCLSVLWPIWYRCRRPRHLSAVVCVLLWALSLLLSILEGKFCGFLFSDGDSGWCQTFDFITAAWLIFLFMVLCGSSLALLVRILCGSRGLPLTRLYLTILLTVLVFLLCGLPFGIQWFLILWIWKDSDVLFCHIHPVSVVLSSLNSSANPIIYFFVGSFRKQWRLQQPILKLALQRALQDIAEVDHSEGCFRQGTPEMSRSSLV
Sequence of UniProt Q02108 (whole entry, unmodified, looked up): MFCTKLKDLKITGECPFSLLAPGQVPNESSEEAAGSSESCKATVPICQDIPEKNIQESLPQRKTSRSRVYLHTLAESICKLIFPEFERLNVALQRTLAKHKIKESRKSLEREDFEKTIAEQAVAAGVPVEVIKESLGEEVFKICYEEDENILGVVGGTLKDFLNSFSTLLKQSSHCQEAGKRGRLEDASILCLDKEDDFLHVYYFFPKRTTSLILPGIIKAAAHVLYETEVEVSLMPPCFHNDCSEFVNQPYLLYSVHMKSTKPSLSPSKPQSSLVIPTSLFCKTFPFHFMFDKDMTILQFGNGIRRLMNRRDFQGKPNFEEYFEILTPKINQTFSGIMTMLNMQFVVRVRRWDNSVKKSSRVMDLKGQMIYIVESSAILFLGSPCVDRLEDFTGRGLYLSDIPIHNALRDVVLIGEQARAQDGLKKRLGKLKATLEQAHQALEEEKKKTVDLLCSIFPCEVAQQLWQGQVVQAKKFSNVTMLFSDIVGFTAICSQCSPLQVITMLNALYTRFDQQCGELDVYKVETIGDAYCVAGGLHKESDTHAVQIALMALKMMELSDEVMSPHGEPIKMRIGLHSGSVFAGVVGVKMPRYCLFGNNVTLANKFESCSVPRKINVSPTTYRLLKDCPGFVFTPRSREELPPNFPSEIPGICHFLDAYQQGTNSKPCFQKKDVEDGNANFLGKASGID
Sequence of UniProt Q02153 (whole entry, unmodified, looked up): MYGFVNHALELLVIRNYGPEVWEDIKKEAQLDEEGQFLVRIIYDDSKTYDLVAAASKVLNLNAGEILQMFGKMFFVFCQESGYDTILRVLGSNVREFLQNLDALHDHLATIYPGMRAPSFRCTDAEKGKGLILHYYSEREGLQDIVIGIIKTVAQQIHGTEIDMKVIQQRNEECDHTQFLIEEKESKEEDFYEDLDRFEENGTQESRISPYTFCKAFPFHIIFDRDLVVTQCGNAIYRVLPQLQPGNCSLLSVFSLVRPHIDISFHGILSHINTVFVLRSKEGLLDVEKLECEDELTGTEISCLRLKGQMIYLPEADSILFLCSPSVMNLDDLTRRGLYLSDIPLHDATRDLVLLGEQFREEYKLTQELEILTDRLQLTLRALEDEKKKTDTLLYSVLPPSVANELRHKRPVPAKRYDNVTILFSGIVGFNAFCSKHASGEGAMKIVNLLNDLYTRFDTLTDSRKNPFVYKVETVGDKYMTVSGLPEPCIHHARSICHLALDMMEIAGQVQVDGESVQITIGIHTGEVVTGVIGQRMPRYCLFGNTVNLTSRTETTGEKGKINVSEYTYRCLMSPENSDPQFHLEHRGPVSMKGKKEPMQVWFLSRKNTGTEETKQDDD
Sequence of UniProt Q704Y3 (whole entry, unmodified, looked up): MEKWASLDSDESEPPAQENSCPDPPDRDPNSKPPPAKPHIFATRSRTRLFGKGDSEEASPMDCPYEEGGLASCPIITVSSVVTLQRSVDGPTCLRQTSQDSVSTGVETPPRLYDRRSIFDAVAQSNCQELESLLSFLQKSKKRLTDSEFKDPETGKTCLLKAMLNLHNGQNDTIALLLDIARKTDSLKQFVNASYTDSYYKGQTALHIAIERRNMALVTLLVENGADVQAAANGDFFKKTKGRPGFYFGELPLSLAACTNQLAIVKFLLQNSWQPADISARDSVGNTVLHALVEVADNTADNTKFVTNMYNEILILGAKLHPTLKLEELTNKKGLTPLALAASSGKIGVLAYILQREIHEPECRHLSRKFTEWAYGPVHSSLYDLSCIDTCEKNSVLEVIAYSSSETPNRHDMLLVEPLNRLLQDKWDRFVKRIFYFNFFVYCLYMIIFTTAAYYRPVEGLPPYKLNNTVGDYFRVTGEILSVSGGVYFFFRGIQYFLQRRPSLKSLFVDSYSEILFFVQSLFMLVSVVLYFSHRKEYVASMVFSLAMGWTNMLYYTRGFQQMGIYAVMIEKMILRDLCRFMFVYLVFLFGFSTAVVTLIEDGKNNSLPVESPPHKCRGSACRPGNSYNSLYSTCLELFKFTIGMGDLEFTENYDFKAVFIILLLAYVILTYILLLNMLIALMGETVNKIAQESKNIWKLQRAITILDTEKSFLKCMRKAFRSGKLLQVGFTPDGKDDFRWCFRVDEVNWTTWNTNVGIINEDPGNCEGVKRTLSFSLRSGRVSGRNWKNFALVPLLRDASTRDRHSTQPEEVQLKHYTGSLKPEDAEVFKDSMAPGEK
Sequence of UniProt P07437 (whole entry, looked up): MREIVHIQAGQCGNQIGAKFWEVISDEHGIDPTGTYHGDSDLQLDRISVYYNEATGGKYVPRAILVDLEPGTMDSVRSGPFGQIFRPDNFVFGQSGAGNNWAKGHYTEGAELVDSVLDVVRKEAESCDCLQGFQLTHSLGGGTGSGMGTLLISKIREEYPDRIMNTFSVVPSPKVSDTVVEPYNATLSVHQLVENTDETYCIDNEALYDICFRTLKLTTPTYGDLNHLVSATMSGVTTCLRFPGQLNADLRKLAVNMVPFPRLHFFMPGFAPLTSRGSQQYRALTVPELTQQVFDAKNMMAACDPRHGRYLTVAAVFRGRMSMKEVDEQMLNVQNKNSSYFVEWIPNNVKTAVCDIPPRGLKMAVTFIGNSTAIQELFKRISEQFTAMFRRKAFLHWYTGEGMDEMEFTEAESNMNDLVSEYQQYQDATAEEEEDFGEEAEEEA

c1cncc([C@@H]2CCCCN2)c1
EC50 (Chrnd/Chrna1/Chrne; channel open probability, agonist; mouse; wild type): 630 µM

CC[C@H](C)[C@H](NC(=O)[C@H](Cc1ccccc1)NC(=O)[C@H](CCC(=O)O)NC(=O)[C@H](CCCNC(=N)N)NC(=O)[C@H](C)NC(=O)[C@H](C)NC(=O)[C@H](CCC(N)=O)NC(=O)[C@H](CCC(=O)O)NC(=O)[C@H](CCC(=O)O)NC(=O)[C@H](CC(C)C)NC(=O)[C@H](Cc1ccc(O)cc1)NC(=O)[C@H](CO)NC(=O)[C@H](CO)NC(=O)[C@@H](NC(=O)[C@H](CC(=O)O)NC(=O)[C@H](CO)NC(=O)[C@@H](NC(=O)[C@H](Cc1ccccc1)NC(=O)[C@@H](NC(=O)CNC(=O)[C@H](CCC(=O)O)NC(=O)[C@H](C)NC(=O)CCc1c[nH]cn1)[C@@H](C)O)[C@@H](C)O)C(C)C)C(=O)N[C@@H](C)C(=O)N[C@@H](Cc1c[nH]c2ccccc12)C(=O)N[C@@H](CC(C)C)C(=O)N[C@H](C(=O)N[C@@H](CCCNC(=N)N)C(=O)NCC(=O)N[C@@H](CCCNC(=N)N)C(=O)N[C@@H](CCCCNC(=O)COCCOCCNC(=O)COCCOCCNC(=O)CC[C@H](NC(=O)CCCCCCCCCCCCCCCCC(=O)O)C(=O)O)C(=O)NCC(=O)NCC(=O)N[C@@H](CO)C(=O)N[C@@H](CCCCNc1c(NCCCCCN(O)C(=O)CCC(=O)NCCCCCN(O)C(=O)CCC(=O)NCCCCCN(O)C(C)=O)c(=O)c1=O)C(=O)O)C(C)C [zirconium-89 labelled]
tissue uptake (ex vivo gamma counting; rat, kidney; subcutaneous, 3 nmol/kg, 72 h, added: [89Zr]-labelled peptide): 6.57 %ID/g

COc1ccc(N2C(=O)N(c3c(C)cccc3Cl)Cc3cnc(Nc4ccc(C5CCN(C)CC5)cc4OC)nc32)nc1
inhibition (EPHA6 (Homo sapiens, UniProt Q9UF33); kinase activity; 0.5 µM): 55%

CNC(C)Cc1ccc2n[se]nc2c1 (stereo not drawn)
EC50 (SLC6A3 (Homo sapiens, UniProt Q01959); transporter current, whole-cell patch clamp; HEK293; holding -60 mV): 5.97 µM

CC[C@H](C)[C@H](NC(=O)[C@H](Cc1ccccc1)NC(=O)[C@H](CC(=O)O)NC(=O)[C@H](CCCNC(=N)N)NC(=O)[C@@H](NC(=O)[C@H](C)NC(=O)[C@H](CC(C)C)NC(=O)[C@H](CC(N)=O)NC(=O)[C@H](CC(=O)O)NC(=O)[C@H](CC(C)C)NC(=O)[C@@H](NC(=O)[C@@H](NC(=O)[C@H](CO)NC(=O)[C@H](CCSC)NC(=O)[C@H](CCC(=O)O)NC(=O)[C@H](CC(=O)O)NC(=O)[C@H](CO)NC(=O)[C@H](Cc1ccccc1)NC(=O)[C@H](CO)NC(=O)CNC(=O)[C@H](CC(=O)O)NC(=O)[C@H](C)NC(=O)[C@@H](N)Cc1c[nH]cn1)[C@@H](C)O)[C@@H](C)CC)[C@@H](C)O)C(=O)N[C@@H](CC(N)=O)C(=O)N[C@@H](Cc1c[nH]c2ccccc12)C(=O)N[C@@H](CC(C)C)C(=O)N[C@H](C(=O)N[C@@H](CCC(N)=O)C(=O)N[C@H](C(=O)N[C@@H](CCCCN)C(=O)N[C@H](C(=O)N[C@H](C(=O)N[C@@H](CC(=O)O)C(=O)O)[C@@H](C)O)[C@@H](C)CC)[C@@H](C)O)[C@@H](C)CC
EC50 (GLP2R (Homo sapiens, UniProt O95838); reporter gene, agonist, CRE-luciferase; HEK-293T): 0.00434 µM

O=C(c1ccc(Cl)cc1)N1CCN2C(=O)N(OC(=O)N3CCOc4ccccc43)C(=O)C2C1 (stereo not drawn)
peptide ratio (TUBB (Homo sapiens, UniProt P07437); MS-based ABPP; SW-620 conditioned medium; 10 µM; baseline: compound over DMSO, lower = more inhibition): 1.07

O=C1c2ccccc2C(=O)C1C(=O)C(c1ccccc1)c1ccc(Cl)cc1 (stereo not drawn)
EC50 (Nuclear receptor subfamily 1 group I member 3 (Homo sapiens, UniProt Q14994); cell-based): 45.5 ± 0.58 µM

Cc1cc(N2CCNCC2)nc2ccccc12
EC50 (CHRM3; ERK1/2 phosphorylation, agonist; CHO cells): > 20 µM

COc1cc(Nc2ncc(F)c(Nc3ccc4c(n3)NC(=O)C(C)(C)O4)n2)cc(OC)c1OC
IC50 (GABBR1 (Homo sapiens, UniProt Q9UBS5)): > 10 µM

c1cncc([C@@H]2CCCN2)c1
EC50 (Chrnd/Chrna1/Chrne; channel open probability, agonist; mouse; wild type): 71 µM

CC[C@H](C)[C@H](NC(=O)[C@@H]1CCCN1C(C)=O)C(=O)N[C@@H](CCC(=O)O)C(=O)N[C@H](C(=O)N[C@@H](CS)C(=O)N[C@@H](CCSC)C(=O)N[C@@H](Cc1ccc(O)cc1)C(=O)N[C@@H](CCCNC(=N)N)C(=O)N[C@@H](CCC(=O)O)C(=O)N1CCC[C@H]1C(N)=O)C(C)C
EC50 (MRGPRX2; β-arrestin-2 recruitment, agonist): > 20 µM

C[C@H]1CN(c2n[nH]c3nc(N[C@H]4CC[C@H](NS(=O)(=O)CCC(F)(F)F)CC4)ncc23)CCO1
remaining binding (Echinoderm microtubule-associated protein-like 4 (Homo sapiens, UniProt Q9HC35); Kinobeads competition, refers to: EML4; 0.8 µM, unit not given; baseline: vehicle): 1.04

O=C(O)c1ccc(CN2C(=O)CN(C(=O)c3ccco3)c3ccc(-c4ccccc4)cc32)cc1
EC50 (Soluble guanylate cyclase alpha1/beta1 complex (Homo sapiens, UniProt Q02108+Q02153); enzyme activity, activator, purified recombinant enzyme): 0.01 µM

CC[C@H](C)[C@@H]1NC(=O)[C@@H]2CCCN2C(=O)[C@H](CC(C)C)NC(=O)[C@H](CC(C)C)NC(=O)CNC(=O)[C@@H](NC(=O)[C@@H](NC(=O)[C@H](CC(=O)O)NC(=O)CNC(=O)[C@@H](NC(=O)[C@H](C)NC(=O)CNC(=O)[C@H](CCCCN)NC(=O)[C@H](CC(C)C)NC(=O)[C@H](CC(C)C)NC(=O)[C@H](CCCCN)NC(=O)CNC(=O)[C@@H](NC(=O)[C@@H](N)CC(C)C)C(C)C)C(C)C)C(C)C)CSSC[C@@H](C(=O)O)NC1=O
log2 fold change (RNA-seq, refers to: Rel mRNA; mouse traumatic brain injury, frontal cortex and hippocampus; dose not given; baseline: TBI plus compound vs TBI): -1.48

CCN1CCN(c2cc(C=O)ccc2[N+](=O)[O-])CC1
EC50 (YWHAG/RELA, phospho-Ser45 p65 peptide (Homo sapiens, UniProt P61981+Q04206); ternary complex formation, stabilizer, fluorescence anisotropy): > 1000 µM

CCCC[C@H](NC(=O)[C@H](CO)NC(C)=O)C(=O)N[C@@H](Cc1ccccc1)C(=O)N[C@@H](CO)C(=O)N[C@@H](CO)C(=O)N[C@@H](CC(N)=O)C(=O)N[C@@H](CCCNC(=N)N)C(=O)N[C@@H](CCC(N)=O)C(=O)N[C@@H](CCCCN)C(=O)N[C@H](C(=O)N[C@@H](CC(C)C)C(=O)N[C@@H](CCC(=O)O)C(=O)N[C@@H](CCCNC(=N)N)C(=O)N[C@H](C(=O)N[C@@H](CCC(=O)O)C(=O)N[C@H](C(=O)N[C@@H](CC(C)C)C(=O)N[C@@H](CC(N)=O)C(=O)N[C@@H](CCC(N)=O)C(=O)N[C@@H](CCC(=O)O)C(=O)N[C@@H](Cc1c[nH]c2ccccc12)C(=O)N[C@@H](CCCCN)C(=O)N[C@@H](CCC(N)=O)C(=O)N[C@@H](CCCNC(=N)N)C(N)=O)[C@@H](C)CC)[C@@H](C)O)[C@@H](C)CC
EC50 (MRGPRX2; β-arrestin-2 recruitment, agonist): > 20 µM

O=C(C1CCCCC1)N1CC(=O)N2CCc3ccccc3[C@@H]2C1
EC50 (uncharacterized protein (Schistosoma haematobium, UniProt A0A922LF77)): 0.367 ± 0.101 µM

CCCCC/C=C\C/C=C\C/C=C\C/C=C\CCCC(=O)NCCO
EC50 (Trpv1 (Mus musculus, UniProt Q704Y3, N552Q); ion current, agonist, whole-cell patch clamp; 24 °C, N552Q, +80 mV): 4.65 ± 0.71 µM

CC(C)C[C@H](NC(=O)[C@H](Cc1ccccc1)NC(=O)[C@H](Cc1ccc(O)cc1)NC(=O)CNC(=O)[C@H](CCCCN)NC(=O)[C@H](CO)NC(=O)[C@H](CCC(N)=O)NC(=O)CNC(=O)[C@@H](NC(=O)[C@H](CO)NC(=O)[C@@H]1CCCN1C(=O)[C@H](CO)NC(=O)[C@H](CCC(N)=O)NC(=O)[C@H](Cc1ccc(O)cc1)NC(=O)[C@H](CCC(=O)O)NC(=O)[C@H](C)NC(=O)[C@H](CCCCN)NC(=O)[C@@H](N)Cc1ccccc1)C(C)C)C(=O)N[C@@H](Cc1ccccc1)C(=O)N[C@@H](CCCNC(=N)N)C(=O)N1CCC[C@H]1C(=O)N[C@@H](CCCNC(=N)N)C(=O)N[C@@H](CC(N)=O)C(N)=O
EC50 (Neuromedin-U receptor 1 (Mus musculus, UniProt O55040); IP-1 accumulation, agonist, IP-1; mean of independent runs): 0.00017 µM

CC[C@H](C)[C@H](NC(=O)[C@H](CCC(=O)O)NC(=O)[C@H](CCC(=O)O)NC(=O)[C@H](C)NC(C)=O)C(=O)N[C@@H](CCC(=O)O)C(=O)O
EC50 (MRGPRX2; β-arrestin-2 recruitment, agonist): > 20 µM

COc1cc2c(Oc3ccc4[nH]c(C)cc4c3F)ccnc2cc1OCC1(N)CC1
grade 3 Myalgia (paediatric recurrent refractory sarcoma; 8 mg/kg): 0%

c1cc(N2CCNCC2)c2cc[nH]c2c1
EC50 (CHRM3; ERK1/2 phosphorylation, agonist; CHO cells): > 20 µM

O=C(O)c1ccc(CN2C(=O)CN(C(=O)c3ccco3)c3cc(-c4ccccc4)c(Oc4ccc(C(=O)O)cc4)cc32)cc1
EC50 (Soluble guanylate cyclase alpha1/beta1 complex (Homo sapiens, UniProt Q02108+Q02153, H105A); activator; α1S/β1 variant): 1.81 µM

C[C@@H](O)[C@@H](CO)NC(=O)[C@@H](CCCNC(=N)N)NC(=O)[C@@H]1CCCN1C(=O)[C@@H]1CSSC[C@H](NC(=O)[C@H](Cc2ccccc2)NC(=O)CN2CCN(CC(=O)O)CCN(CC(=O)O)CCN(CC(=O)O)CC2)C(=O)N[C@@H](Cc2ccc(O)cc2)C(=O)N[C@@H](Cc2ccccc2)C(=O)N[C@@H](CCC(N)=O)C(=O)N[C@@H](CC(N)=O)C(=O)N1 [gallium-68 labelled]
tissue uptake (Wistar rat, healthy, Lacrimal gland; intravenous, 8 MBq, 30 min): 0.15 %ID/g

Excerpt of the above:
CC[C@H](C)[C@H](NC(=O)[C@@H]1CCCN1C(C)=O)C(=O)N[C@@H](CCC(=O)O)C(=O)N[C@H](C(=O)N[C@@H](CS)C(=O)N[C@@H](CCSC)C(=O)N[C@@H](Cc1ccc(O)cc1)C(=O)N[C@@H](CCCNC(=N)N)C(=O)N[C@@H](CCC(=O)O)C(=O)N1CCC[C@H]1C(N)=O)C(C)C
EC50 (MRGPRX2; β-arrestin-2 recruitment, agonist): > 20 µM

CC[C@H](C)[C@H](NC(=O)[C@H](CCC(=O)O)NC(=O)[C@H](CCC(=O)O)NC(=O)[C@H](C)NC(C)=O)C(=O)N[C@@H](CCC(=O)O)C(=O)O
EC50 (MRGPRX2; β-arrestin-2 recruitment, agonist): > 20 µM

O=C(C1CCCCC1)N1CC(=O)N2CCc3ccccc3[C@@H]2C1
EC50 (uncharacterized protein (Schistosoma haematobium, UniProt A0A922LF77)): 0.367 ± 0.101 µM
